Published values pooled from the literature.
Several values in a cell are separate wells, animals, samples, runs or records.
Target: Fibroblast growth factor receptor 1 (FGFR1, Homo sapiens, UniProt P11362)
Sequence of UniProt P11362 (whole entry, looked up): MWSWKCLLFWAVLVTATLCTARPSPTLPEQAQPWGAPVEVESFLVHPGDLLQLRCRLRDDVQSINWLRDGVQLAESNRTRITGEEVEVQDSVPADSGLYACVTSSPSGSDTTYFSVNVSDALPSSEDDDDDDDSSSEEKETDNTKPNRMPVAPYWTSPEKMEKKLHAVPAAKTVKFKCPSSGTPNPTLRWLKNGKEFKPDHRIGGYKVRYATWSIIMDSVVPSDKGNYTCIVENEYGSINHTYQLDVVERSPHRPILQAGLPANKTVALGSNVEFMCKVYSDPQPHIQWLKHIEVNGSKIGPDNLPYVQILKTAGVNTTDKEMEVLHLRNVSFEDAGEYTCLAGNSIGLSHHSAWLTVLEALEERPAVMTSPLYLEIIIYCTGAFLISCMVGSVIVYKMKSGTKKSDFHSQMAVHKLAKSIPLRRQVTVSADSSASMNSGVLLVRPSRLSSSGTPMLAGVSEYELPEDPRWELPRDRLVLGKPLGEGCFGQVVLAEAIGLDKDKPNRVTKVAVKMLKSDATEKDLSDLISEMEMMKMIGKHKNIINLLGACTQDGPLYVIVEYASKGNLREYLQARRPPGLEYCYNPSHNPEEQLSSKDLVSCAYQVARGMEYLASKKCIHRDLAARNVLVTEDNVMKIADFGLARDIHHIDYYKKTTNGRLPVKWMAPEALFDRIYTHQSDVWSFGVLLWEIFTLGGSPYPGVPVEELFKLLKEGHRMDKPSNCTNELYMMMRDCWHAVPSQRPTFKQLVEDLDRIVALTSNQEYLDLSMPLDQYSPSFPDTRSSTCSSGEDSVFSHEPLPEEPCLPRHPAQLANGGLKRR

Compound	test	conditions	IC50
Cc1ccc2oc(-c3c4c(N)n[nH]c(=O)c4nn3-c3ccc([N+](=O)[O-])cc3)c(C)c2c1	enzyme activity, inhibitor, ELISA		44.7 nM
O=C1Nc2ccc(-c3ccc(C(=O)N4CCOCC4)cc3)cc2/C1=C/c1ccc(N2CCNCC2)cc1	enzyme activity, inhibitor, FRET		9.54 nM and < 16 nM
Cc1cc2c(C)c(-c3c4c(N)n[nH]c(=O)c4nn3-c3ccccc3)oc2cc1Cl	enzyme activity, inhibitor, ELISA		110 nM
COc1cc2nccc(Oc3ccc(NC(=S)NC4CC4)c(Cl)c3)c2cc1C#N			1900 nM
COc1cc2nccc(Oc3ccc(NC(=O)NC4CC4)c(Cl)c3)c2cc1C(N)=O	enzyme activity, inhibitor		40 nM
Cc1ccnc(Oc2ccc(-c3c(-c4ccc(NC(=O)C(C)C)cc4)n(C)c4ncnc(N)c34)cc2F)n1	Caliper mobility shift	30 min preincubation, added: 100 µM ATP	4600 nM
CN1CCN(c2ccc(/C=C3\C(=O)Nc4ccc(-c5ccc(-c6ccc(O)cc6)cc5)cc43)cc2)CC1	enzyme activity, inhibitor, FRET		14.9 nM and < 16 nM
COc1cc2nccc(Oc3ccc(NC(=S)NCC(C)(C)O)c(Cl)c3)c2cc1C(N)=O			4360 nM
Cc1c(-c2c3c(N)n[nH]c(=O)c3nn2-c2ccc(NC(=O)/C=C/CN(C)C)cc2)oc2cc(F)ccc12	enzyme activity, inhibitor, ELISA		63.4 nM
C=CC(=O)N1CCC(c2c(-c3ccc(OC)cc3)c3c(N)ncnc3n2C)C1 (centres unmarked)	Caliper mobility shift	30 min preincubation, added: 100 µM ATP	1440 nM
COc1cc(Cc2c[nH]c3ncc(C(F)(F)F)cc23)cc(OC)c1	enzyme activity, inhibitor		7 nM
Cc1ccc2c(C)c(-c3c4c(N)n[nH]c(=O)c4nn3-c3ccccc3)oc2c1	enzyme activity, inhibitor, ELISA		79 nM
C=CC(=O)Nc1ccc(-c2c(-c3ccc(Oc4cccc(C)n4)cc3)c3c(N)ncnc3n2C)cc1	Caliper mobility shift	30 min preincubation, added: 100 µM ATP	9.8 nM
COc1cc2nccc(Oc3ccc(NC(=S)NCc4ccncc4)c(Cl)c3)c2cc1C(N)=O			1730 nM
C=CC(=O)N1CC=C(c2c(-c3ccc(Oc4cccc(C)n4)cc3)c3c(N)ncnc3n2C)C1	Caliper mobility shift	30 min preincubation, added: 100 µM ATP	250 nM
COc1cc2nccc(Oc3ccc(NC(=S)N4CCN(C)CC4)c(Cl)c3)c2cc1C(N)=O			> 10000 nM
Cc1nc2ccc(Cc3c[nH]c4ncc(C(F)(F)F)cc34)cc2o1	enzyme activity, inhibitor		266 nM
COc1cc2nccc(Oc3ccc(NC(=S)N4CCC(F)(F)CC4)c(Cl)c3)c2cc1C(N)=O			457 nM
O=C1Nc2ccc(-c3ccc(C(=O)N4CCCCC4)cc3)cc2/C1=C/c1ccc(N2CCNCC2)cc1	enzyme activity, inhibitor, FRET		18.3 nM
COc1cc2nccc(Oc3ccc4sc(Nc5ccc(Cl)c(F)c5)nc4c3)c2cc1C(N)=O			3680 nM
CN1CCN(C(=O)c2ccc(-c3ccc4c(c3)/C(=C/c3ccc(N5CCOCC5)cc3)C(=O)N4)cc2)CC1	enzyme activity, inhibitor, FRET		1890 nM
COc1cc2nccc(Oc3ccc(NC(=S)NC4CCOCC4)c(Cl)c3)c2cc1C(N)=O			5070 nM
C=CC(=O)Nc1ccc(-n2nc3c(=O)[nH]nc(N)c3c2-c2oc3cc(F)ccc3c2C)cc1	enzyme activity, inhibitor, ELISA		79 nM

Some of these lines once more:
Compound	test	conditions	IC50
COc1cc2nccc(Oc3ccc(NC(=O)NC4CC4)c(Cl)c3)c2cc1C(N)=O	enzyme activity, inhibitor		40 nM
Cc1ccnc(Oc2ccc(-c3c(-c4ccc(NC(=O)C(C)C)cc4)n(C)c4ncnc(N)c34)cc2F)n1	Caliper mobility shift	30 min preincubation, added: 100 µM ATP	4600 nM
CN1CCN(c2ccc(/C=C3\C(=O)Nc4ccc(-c5ccc(-c6ccc(O)cc6)cc5)cc43)cc2)CC1	enzyme activity, inhibitor, FRET		14.9 nM and < 16 nM
